Results pooled from the literature.
A part holds a random share of what one study measured.
Sequence of UniProt P35626 (whole entry, looked up): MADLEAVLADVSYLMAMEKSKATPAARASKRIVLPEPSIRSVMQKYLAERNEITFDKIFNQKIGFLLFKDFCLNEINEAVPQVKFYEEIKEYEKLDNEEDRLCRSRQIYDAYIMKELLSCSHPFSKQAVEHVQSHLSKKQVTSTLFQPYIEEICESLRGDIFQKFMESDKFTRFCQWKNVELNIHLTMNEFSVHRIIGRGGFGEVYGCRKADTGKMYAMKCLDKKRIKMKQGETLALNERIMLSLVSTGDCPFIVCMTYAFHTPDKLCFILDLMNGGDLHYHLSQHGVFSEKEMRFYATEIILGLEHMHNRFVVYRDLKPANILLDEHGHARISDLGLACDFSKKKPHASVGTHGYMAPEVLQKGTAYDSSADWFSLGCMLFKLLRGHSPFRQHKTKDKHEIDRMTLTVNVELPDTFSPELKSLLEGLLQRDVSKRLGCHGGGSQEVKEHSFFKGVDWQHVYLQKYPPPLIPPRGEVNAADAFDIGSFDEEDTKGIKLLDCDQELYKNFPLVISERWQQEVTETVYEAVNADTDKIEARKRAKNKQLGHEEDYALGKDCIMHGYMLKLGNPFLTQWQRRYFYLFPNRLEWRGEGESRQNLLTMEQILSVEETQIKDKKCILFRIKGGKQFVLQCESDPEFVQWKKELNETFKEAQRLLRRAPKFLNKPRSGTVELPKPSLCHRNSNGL
Sequence of UniProt Q15831 (whole entry, looked up): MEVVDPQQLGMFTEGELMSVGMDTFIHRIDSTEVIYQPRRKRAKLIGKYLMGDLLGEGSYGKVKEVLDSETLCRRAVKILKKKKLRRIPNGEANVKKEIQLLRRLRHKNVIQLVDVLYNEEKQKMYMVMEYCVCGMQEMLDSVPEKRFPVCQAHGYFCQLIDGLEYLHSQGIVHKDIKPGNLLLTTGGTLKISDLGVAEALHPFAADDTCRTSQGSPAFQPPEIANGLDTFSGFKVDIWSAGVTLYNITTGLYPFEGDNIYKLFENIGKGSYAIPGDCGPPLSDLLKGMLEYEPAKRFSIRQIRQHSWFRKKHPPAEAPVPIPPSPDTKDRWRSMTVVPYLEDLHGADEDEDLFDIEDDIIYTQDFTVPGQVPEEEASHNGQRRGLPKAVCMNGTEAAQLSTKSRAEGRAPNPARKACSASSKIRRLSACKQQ
Sequence of UniProt P11309 (whole entry, looked up): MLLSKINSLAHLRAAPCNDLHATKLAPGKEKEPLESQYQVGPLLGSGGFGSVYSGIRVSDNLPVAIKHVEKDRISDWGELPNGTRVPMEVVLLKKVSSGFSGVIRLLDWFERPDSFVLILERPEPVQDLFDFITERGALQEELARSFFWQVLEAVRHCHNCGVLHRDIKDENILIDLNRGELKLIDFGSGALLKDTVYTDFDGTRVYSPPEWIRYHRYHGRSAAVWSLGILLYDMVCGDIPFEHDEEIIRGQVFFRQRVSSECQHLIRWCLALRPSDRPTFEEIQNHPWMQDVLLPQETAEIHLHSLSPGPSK
Sequence of UniProt P45984 (whole entry, looked up): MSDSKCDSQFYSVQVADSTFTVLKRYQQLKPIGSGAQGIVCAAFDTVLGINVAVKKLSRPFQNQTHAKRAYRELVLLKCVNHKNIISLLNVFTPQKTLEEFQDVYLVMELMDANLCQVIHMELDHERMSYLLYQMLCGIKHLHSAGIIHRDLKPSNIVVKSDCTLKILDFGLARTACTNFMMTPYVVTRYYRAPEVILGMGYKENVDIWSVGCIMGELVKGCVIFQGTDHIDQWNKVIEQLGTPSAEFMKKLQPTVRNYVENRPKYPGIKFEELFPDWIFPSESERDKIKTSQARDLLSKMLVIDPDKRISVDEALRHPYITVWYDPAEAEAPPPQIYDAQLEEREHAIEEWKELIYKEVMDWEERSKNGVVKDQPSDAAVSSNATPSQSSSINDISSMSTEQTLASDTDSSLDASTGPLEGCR
Sequence of UniProt Q99759 (whole entry, looked up): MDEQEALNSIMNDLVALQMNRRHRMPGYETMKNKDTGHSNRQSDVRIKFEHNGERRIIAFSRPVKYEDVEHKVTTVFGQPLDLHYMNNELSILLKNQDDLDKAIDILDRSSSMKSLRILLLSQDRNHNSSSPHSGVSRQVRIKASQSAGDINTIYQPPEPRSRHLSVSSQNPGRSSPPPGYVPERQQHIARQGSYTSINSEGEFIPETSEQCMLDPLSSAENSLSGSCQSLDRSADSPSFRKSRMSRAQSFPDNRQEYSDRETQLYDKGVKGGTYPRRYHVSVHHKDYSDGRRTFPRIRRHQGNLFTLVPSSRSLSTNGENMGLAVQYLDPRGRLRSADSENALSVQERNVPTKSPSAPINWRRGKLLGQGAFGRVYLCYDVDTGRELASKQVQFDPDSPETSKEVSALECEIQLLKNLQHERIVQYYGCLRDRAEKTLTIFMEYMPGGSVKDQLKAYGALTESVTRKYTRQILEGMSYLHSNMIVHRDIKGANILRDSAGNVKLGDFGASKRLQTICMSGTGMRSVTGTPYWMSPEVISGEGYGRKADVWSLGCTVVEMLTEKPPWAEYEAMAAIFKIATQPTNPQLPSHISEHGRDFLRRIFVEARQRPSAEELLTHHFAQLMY
Sequence of UniProt P05771 (whole entry, looked up): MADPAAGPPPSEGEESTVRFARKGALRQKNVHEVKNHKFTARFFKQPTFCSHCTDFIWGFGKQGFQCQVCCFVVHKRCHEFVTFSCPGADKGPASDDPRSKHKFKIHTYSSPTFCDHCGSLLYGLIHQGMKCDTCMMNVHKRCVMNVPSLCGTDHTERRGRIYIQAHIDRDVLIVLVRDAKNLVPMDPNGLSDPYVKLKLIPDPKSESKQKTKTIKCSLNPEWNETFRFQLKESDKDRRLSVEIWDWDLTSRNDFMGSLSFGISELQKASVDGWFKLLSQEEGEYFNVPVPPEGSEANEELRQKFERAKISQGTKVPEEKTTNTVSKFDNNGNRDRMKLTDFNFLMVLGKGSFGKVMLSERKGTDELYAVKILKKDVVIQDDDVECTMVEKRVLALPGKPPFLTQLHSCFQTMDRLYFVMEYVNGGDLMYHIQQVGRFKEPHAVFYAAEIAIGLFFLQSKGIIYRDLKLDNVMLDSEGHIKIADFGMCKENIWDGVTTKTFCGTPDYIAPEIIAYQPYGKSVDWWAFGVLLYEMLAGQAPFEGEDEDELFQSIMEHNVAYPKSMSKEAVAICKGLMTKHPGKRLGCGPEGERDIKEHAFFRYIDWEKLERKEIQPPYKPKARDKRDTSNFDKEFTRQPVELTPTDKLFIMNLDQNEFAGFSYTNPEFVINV
Sequence of UniProt P54753 (whole entry, looked up): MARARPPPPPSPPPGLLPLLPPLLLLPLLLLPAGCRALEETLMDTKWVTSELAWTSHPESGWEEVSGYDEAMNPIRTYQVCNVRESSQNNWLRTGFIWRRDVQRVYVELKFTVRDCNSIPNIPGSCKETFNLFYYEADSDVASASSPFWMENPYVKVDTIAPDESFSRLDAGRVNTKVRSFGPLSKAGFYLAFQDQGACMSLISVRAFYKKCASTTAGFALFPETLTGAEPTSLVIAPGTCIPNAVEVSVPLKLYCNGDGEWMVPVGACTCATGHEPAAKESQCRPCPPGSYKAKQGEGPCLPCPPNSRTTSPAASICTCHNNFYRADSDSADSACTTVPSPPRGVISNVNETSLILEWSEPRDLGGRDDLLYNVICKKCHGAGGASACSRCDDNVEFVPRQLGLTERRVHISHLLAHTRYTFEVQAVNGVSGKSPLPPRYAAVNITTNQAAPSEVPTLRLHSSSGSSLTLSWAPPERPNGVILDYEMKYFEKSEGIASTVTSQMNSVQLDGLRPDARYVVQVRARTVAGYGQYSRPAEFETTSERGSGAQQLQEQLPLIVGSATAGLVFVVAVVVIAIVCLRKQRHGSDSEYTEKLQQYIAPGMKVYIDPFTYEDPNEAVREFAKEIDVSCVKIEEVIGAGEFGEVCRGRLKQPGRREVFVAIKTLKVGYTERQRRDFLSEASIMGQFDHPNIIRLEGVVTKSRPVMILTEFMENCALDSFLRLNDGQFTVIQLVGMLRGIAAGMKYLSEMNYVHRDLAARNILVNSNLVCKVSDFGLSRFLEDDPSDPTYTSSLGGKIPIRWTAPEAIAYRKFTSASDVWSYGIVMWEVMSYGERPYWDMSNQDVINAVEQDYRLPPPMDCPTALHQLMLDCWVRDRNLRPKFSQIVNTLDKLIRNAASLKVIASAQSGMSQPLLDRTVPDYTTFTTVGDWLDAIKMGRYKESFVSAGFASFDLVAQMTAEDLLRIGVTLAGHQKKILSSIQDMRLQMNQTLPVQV

Set 1
Technique: PRP chromatography
Notes: linear fit, 1 mL
With `CC(C)C[C@@H]1NC(=O)[C@H](C)NC(=O)[C@@H](CC(C)C)NC(=O)[C@H](C)NC(=O)[C@@H](Cc2cscn2)NC(=O)[C@H](CC(C)C)NC(=O)[C@@H](CC(C)C)NC1=O` the logD 1,9-decadiene/water was -0.346 log units.
`CC(C)C[C@@H]1NC(=O)[C@H](CC(C)C)NC(=O)[C@@H](CC(C)C)NC(=O)[C@@H](CC(C)C)NC(=O)[C@@H](CCC(=O)N2CCCC2)NC(=O)[C@H](CC(C)C)NC(=O)[C@@H](CC(C)C)NC1=O` has a logD 1,9-decadiene/water of 1.03 log units.
With `CC(C)C[C@@H]1NC(=O)[C@H](C)NC(=O)[C@@H](CC(C)C)NC(=O)[C@@H](CC(C)C)NC(=O)[C@H](C(C)C)NC(=O)[C@H](CC(C)C)NC(=O)[C@@H](CC(C)C)NC1=O` the logD 1,9-decadiene/water was 1.14 log units.
`CC(C)C[C@@H]1NC(=O)[C@H](CC(C)C)NC(=O)[C@@H](C(C)C)NC(=O)[C@H](CC(C)C)NC(=O)[C@H](C(C)C)NC(=O)[C@H](C)NC(=O)[C@H](C)NC1=O` gave a logD 1,9-decadiene/water of -1.33 log units.
With `CC(C)C[C@@H]1NC(=O)[C@H](C)NC(=O)[C@H](CCC(=O)N2CCCC2)NC(=O)[C@H](CC(C)C)NC(=O)[C@@H](CCC(=O)N2CCCC2)NC(=O)[C@H](CC(C)C)NC(=O)[C@@H](CC(C)C)NC1=O` the logD 1,9-decadiene/water was -1.84 log units.
For `CC(C)C[C@@H]1NC(=O)[C@H](CC(C)C)NC(=O)[C@@H](CC(C)C)NC(=O)[C@H](C)NC(=O)[C@H](C)NC(=O)[C@@H](CC(C)C)NC(=O)[C@H](C)NC1=O`, the logD 1,9-decadiene/water was -1.68 log units.
For `CC(C)C[C@@H]1NC(=O)[C@H](C(C)C)NC(=O)[C@H](Cc2cscn2)NC(=O)[C@H](CC(C)C)NC(=O)[C@@H](CCC(=O)N2CCCC2)NC(=O)[C@H](CC(C)C)NC(=O)[C@@H](CC(C)C)NC1=O`, the logD 1,9-decadiene/water was -1.11 log units.

Set 2
Target: Diamine acetyltransferase 1 (Homo sapiens, UniProt P21673)
Mode: inhibitor
Concentration: 10 µM
Baseline: control
Target sequence (P21673 1-171): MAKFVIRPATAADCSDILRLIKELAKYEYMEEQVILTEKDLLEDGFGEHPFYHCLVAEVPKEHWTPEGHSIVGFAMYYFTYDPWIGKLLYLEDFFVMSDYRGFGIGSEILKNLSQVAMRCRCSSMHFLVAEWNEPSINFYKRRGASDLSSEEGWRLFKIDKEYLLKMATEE
`CC(C)=CCC/C(C)=C\CO` has a remaining activity of 100%.
`CC1(C)CC[C@]2(C(=O)O[C@@H]3O[C@H](CO[C@@H]4O[C@H](CO)[C@@H](O)[C@H](O)[C@H]4O)[C@@H](O)[C@H](O)[C@H]3O)CC[C@]3(C)C(=CC[C@@H]4[C@@]5(C)CC[C@H](O[C@@H]6OC[C@H](O)[C@H](O)[C@H]6O)[C@@](C)(CO)[C@@H]5CC[C@]43C)[C@@H]2C1` has a remaining activity of 104%.
With `CC(O)CO` (racemic) the remaining activity was 88.3%.

Set 3
Cell line: HaCaT
Concentration: 100 µM
Time: 18 h
The viability of `CC(C)N1CCN(c2ccc(OC[C@H]3CO[C@](Cn4cncn4)(c4ccc(Cl)cc4Cl)O3)cc2)CC1` (racemic) is reported as 39.9%.
`Oc1cc(O)c(Cl)cn1` has a viability of 119%.
With `NC(=O)N/N=C/c1ccc([N+](=O)[O-])o1` the viability was 85.7%.
For `CCCN(CCC)CCc1cccc2c1CC(=O)N2`, the viability was 111%.
`COc1c2occc2c(OC)c2c(=O)cc(C)oc12` has a viability of 59.2%.
`O=C1OC(CN2CCOCC2)CN1/N=C/c1ccc([N+](=O)[O-])o1` (stereo not shown) has a viability of 81.9%.
The viability of `C=CC[N+]1([C@H]2C[C@H]3[C@@H]4CC[C@H]5C[C@H](O)[C@@H](N6CCOCC6)C[C@]5(C)[C@H]4CC[C@]3(C)[C@H]2OC(C)=O)CCCC1` is reported as 80.4%.

Set 4
Host: mouse
Medium: microsomes or S9
Concentration: 2 µM
Time: 0.5 h
`CC1=C(C(=O)NC2CCN(Cc3ccc(OCCCN(C)C)cc3)CC2)Cc2ccccc21` gave a remaining compound of 88.4%.
The remaining compound of `CCn1ccc(C(=O)N2C[C@@H](F)C[C@H]2Cn2cc(C(N)=O)nn2)n1` is reported as greater than 100%.
With `CCOC(=O)C1CCN(C(=O)CCC(=O)N2CCCn3nc(-c4cn(C)c5ccccc45)cc32)CC1` the remaining compound was 1.39%.
For `CC(C)NC(=O)Cn1cnc2c(sc3cccc(Cl)c32)c1=O`, the remaining compound was 93.8%.
`CCOc1cc(=O)n2c(c1C(=O)N1CCOCC1)CCCCC2` has a remaining compound of 86.8%.

Set 5
SMILES: CC1=C(C#N)[C@@H](c2ccc3[nH]nc(C)c3c2)C(C#N)=C(c2ccc(Cl)cc2)N1
Technique: competition with immobilised ligand
Concentration: 1 µM
The remaining binding was 100% (CDK7 (Homo sapiens, UniProt P50613); cell-free assay).
EPHB3 (Homo sapiens, UniProt P54753); cell-free assay — remaining binding: 100%.
PIM1 (Homo sapiens, UniProt P11309); cell-free assay — remaining binding: 100%.
The remaining binding was 85.1% (MAK (Homo sapiens, UniProt P20794); binding).
For PRKACB (Homo sapiens, UniProt P22694); cell-free assay: remaining binding read 81.5%.
STK17B (Homo sapiens, UniProt O94768); cell-free assay — remaining binding: 100%.

Set 6
Compound: O=C1Nc2ccccc2/C1=C\c1c(Cl)[nH]c2ccccc12
Observed: enzyme activity
Mode: inhibitor
Concentration: 0.5 µM
Baseline: control
cGMP-dependent protein kinase 1, isoform beta (PRKG1, Homo sapiens, UniProt Q13976) — remaining activity: 93.6%.
For PRKCA (Homo sapiens, UniProt P17252): remaining activity read 63.2%.
IKBKE (Homo sapiens, UniProt Q14164) — remaining activity: 98%.
It gave 98.4% for remaining activity (Cyclin-dependent kinase 4, with cyclin D1 (CDK4, Homo sapiens, UniProt P11802)).
TGFBR1 (Homo sapiens, UniProt P36897) — remaining activity: 94.4%.
The remaining activity was 90.9% (STK10 (Homo sapiens, UniProt O94804)).
The remaining activity was 88.1% (DAPK1 (Homo sapiens, UniProt P53355)).
The remaining activity was 93.6% (Tyrosine-protein kinase Lyn, isoform B (LYN, Homo sapiens, UniProt P07948)).
The remaining activity was 89.1% (OXSR1 (Homo sapiens, UniProt O95747)).
It gave 105% for remaining activity (Protein kinase C beta type, isoform beta-I (PRKCB, Homo sapiens, UniProt P05771)).
It gave 96.8% for remaining activity (DAPK2 (Homo sapiens, UniProt Q9UIK4)).
For TGFBR2 (Homo sapiens, UniProt P37173): remaining activity read 95.6%.
It gave 86.7% for remaining activity (CAMK2D (Homo sapiens, UniProt Q13557)).
For IKBKB (Homo sapiens, UniProt O14920): remaining activity read 106%.
STK39 (Homo sapiens, UniProt Q9UEW8) — remaining activity: 104%.
It gave 99% for remaining activity (NEK2 (Homo sapiens, UniProt P51955)).
For Cyclin-dependent kinase 5, with p25 (CDK5, Homo sapiens, UniProt Q00535): remaining activity read 86%.
The remaining activity was 97.8% (CAMKK2 (Homo sapiens, UniProt Q96RR4)).
It gave 101% for remaining activity (MAPK9 (Homo sapiens, UniProt P45984)).
The remaining activity was 99.4% (CHEK2 (Homo sapiens, UniProt O96017)).
The remaining activity was 90.1% (GRK3 (Homo sapiens, UniProt P35626)).
The remaining activity was 102% (PRKACA (Homo sapiens, UniProt P17612)).
The remaining activity was 83.4% (STK11 (Homo sapiens, UniProt Q15831)).
The remaining activity was 112% (MAP3K3 (Homo sapiens, UniProt Q99759)).

Some of these lines once more (set 6):
It gave 105% for remaining activity (Protein kinase C beta type, isoform beta-I (PRKCB, Homo sapiens, UniProt P05771)).
For IKBKB (Homo sapiens, UniProt O14920): remaining activity read 106%.
The remaining activity was 88.1% (DAPK1 (Homo sapiens, UniProt P53355)).
The remaining activity was 112% (MAP3K3 (Homo sapiens, UniProt Q99759)).
The remaining activity was 102% (PRKACA (Homo sapiens, UniProt P17612)).
For PRKCA (Homo sapiens, UniProt P17252): remaining activity read 63.2%.
It gave 98.4% for remaining activity (Cyclin-dependent kinase 4, with cyclin D1 (CDK4, Homo sapiens, UniProt P11802)).
